# Experimental data pooled from the literature.
# Each numbered part is a random draw from the data of one study; scales do not carry over between parts.

# Study 1 — method: universal PBM; form: double-stranded DNA, one strand shown; matrix: in vitro; tested at: not given; reading: higher = stronger binding
# Target: Sal-like protein 4, full length isoform B (SALL4, Homo sapiens, UniProt Q9UJQ4-2, residues 1-616)
# Setting: 8-mer, flanks averaged, mean of replicates
# Residues (chain): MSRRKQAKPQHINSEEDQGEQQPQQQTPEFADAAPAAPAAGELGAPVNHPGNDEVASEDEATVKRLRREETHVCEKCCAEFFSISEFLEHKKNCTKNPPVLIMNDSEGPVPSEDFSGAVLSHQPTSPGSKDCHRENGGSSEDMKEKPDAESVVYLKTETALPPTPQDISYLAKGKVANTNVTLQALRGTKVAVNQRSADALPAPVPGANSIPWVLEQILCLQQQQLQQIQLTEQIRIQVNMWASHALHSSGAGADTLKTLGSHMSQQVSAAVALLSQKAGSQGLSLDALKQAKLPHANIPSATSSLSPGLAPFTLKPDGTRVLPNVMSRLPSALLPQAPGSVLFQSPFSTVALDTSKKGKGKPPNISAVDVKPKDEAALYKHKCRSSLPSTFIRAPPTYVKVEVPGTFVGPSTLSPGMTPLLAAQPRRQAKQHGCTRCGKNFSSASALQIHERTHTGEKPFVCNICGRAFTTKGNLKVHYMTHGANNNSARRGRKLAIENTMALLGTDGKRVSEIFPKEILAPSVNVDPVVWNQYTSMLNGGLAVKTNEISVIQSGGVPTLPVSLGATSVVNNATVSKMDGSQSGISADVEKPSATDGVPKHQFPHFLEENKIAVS
Sequence,E-score
GGCTACCA,-0.123
ACCTAGAT,-0.0657
AGATGAGC,0.0318
ATTCAGAG,-0.0325
ACCTCCAA,0.0626
AGTGCACG,-0.171
CAACTTGG,-0.0636
GAACGGAC,-0.151
GGATTACC,-0.0833
CCTAAAAG,-0.0707
CAGGCTGA,-0.229
GAGCGAGA,-0.0906
AACGGACC,-0.19
CCGATTCC,-0.247
CACCCAAA,-0.0798
ATGAACAC,0.18
GAGATCTA,-0.0441
ACTTGGGA,-0.0503

# Study 2 — method: RNA Bind-n-Seq; form: RNA; matrix: in vitro; tested at: 365 nM; baseline: no-protein control; reading: higher = stronger binding
# Target: RNA binding protein fox-1 homolog 2, RRM domain, GST-SBP tag (RBFOX2, Homo sapiens, UniProt O43251-10, residues 100-194)
# Setting: natural RNA segment, single round, ends assumed
# Shared flanks, not repeated: GGGAGUUCUACAGUCCGACGAUC … UGGAAUUCUCGGGUGCCAA
# Construct (chain): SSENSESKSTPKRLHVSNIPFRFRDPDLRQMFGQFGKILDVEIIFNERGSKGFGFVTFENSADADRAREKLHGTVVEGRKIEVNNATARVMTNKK
Sequence,RBNS enrichment (R)
CUCACCCCUAACCCCCAAUCACAAAGAAAGGUAAUAAAAAUAUAAAUUCCAAGGAUUAGGAAAAGUGGAAUGUUUUUGCCCCUCAAAGUCCACCCCCUAGACAGCAAUGC,0.625
AACUCUCUUGGCAGAUGUGUGAAAGGAUUCUUGCUUGAUCAAACACUAAGUAUUUUUUUGGUUCUUGUUUUUCUUUCAAAUAGCCAGGUUUUUUUCUUUUGGUAUUUGCA,2.16
UUAUGUAGACAUUGUAAAUAAAUUUUGUGCAAAAAGGACUGGAAAGAUGAACUGUAUUAUUGCAUUUAUUUUGUUUUUUUUUUUGUGAAAGUAGCAGAUUAGUGCAAGGU,0.758
GCGCCCCAGGUCUCCCCUACUCCGCUCACCCCGCAGUUAAUGGCAAACGAAUAAAUAAAUGAGGCGGCCUCGGAGUGAGGGGUGCUGGAGGACUGGCAGCCAGGCCACGA,0.422
CUUUGCAGGAGAACUUGGAAGCAGAGUUCACCAGUGAGCUCAGGUGUCUCAAAGAAGGGUGGAAGUUCUCAUGUCUGUUAGCUAUUCAUAAGAAUGCUGUUUGCUGCAGU,15.1
AUCCUGAAAUACGGCGUGUGUACUUUAACAAGGGCCUUGAAGCCAAGAUCAAGUGCUGGAGGCCGGAGCCAUCUGUGAGCCUCCCUAAGCCACAGCAGUGAGGAGAUUUG,0.279
UUUAAUAGUAACAUUAACAACAAGAAUACUAAGACUGUUUGGGAAUUUUAAAAAGCUACUAGUGAGAAACCAAAUGAUAGGUUGUAGAGCCUGAUGACUCCAAACAAAGC,0.657
AGCGGGGGGCCUCUUCCUUCCUGGUGCUGGUCAGGGGGCCUGGAAACAAACUUUCUGAGGCUGGGUCAGCUUGCCUUAUAGUACUCCUCUCCUGCUAUGCCAACCUCAGG,0.436

# Study 3 — method: protein binding microarray; form: double-stranded DNA, one strand shown; matrix: in vitro; tested at: not given; baseline: not given; reading: higher = stronger binding
# Target: Histone acetyltransferase KAT6A, winged helix 1, GST fusion (KAT6A, Homo sapiens, UniProt Q92794, residues 1-85)
# Setting: 8-mer, flanks averaged, mean of 2 arrays, mostly near background
# Residues (chain): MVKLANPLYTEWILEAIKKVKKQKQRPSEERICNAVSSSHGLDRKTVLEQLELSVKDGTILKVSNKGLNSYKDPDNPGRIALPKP
Sequence,E-score
CCGCAACG,0.296
AACATATA,-0.209
AGCAGCCC,-0.0292
GCTTGTGA,-0.128
GTAAGGGA,0.000375
AAGCGGTA,0.232
ACTACAGG,-0.0229
ATATCCTA,0.00607
CTAATGAA,-0.068
ACCTCTAT,-0.0655
GACAGAGC,-0.00066
GCGGATCA,0.127
AAACCAAC,-0.07
AGAACACC,0.00628
TCCAGAAA,-0.192
TCCAGAGA,-0.134
GACCACTC,-0.0353
TCGTCCAA,-0.0601
CCGCCACA,0.201
GACCCGAA,0.0198
GATACTAC,0.00936
TAGAGCAA,-0.131
GGGCCATA,0.123
CATTTTAC,-0.0186
ACATCTCT,-0.0638

# Study 4 — method: protein-binding microarray; form: double-stranded DNA, one strand shown; matrix: in vitro; tested at: 940 nM top; setting: 60-bp whole probe; together with: salmon DNA 0.4 mg/ml; baseline: random background probes; reading: higher = stronger binding; shared flanks, not repeated: GCCTAGCAC … GTCTTGATTCGCTTGACGCTGCTG
# Target: Interferon regulatory factor 5, full length, phosphomimetic (IRF5, Homo sapiens, UniProt Q13568-2, residues 1-514, S451D/S453D/S456D/S462D)
Sequence,fitted relative affinity [z-score]
TTACGTTTCCTACTGCTTTAGTGCTAG,1.53
GACGGACTGGGGTATCGTGACGTGCTA,-0.0213
GGCTCCTCCCCGCTTCTGGAGTGCTAG,-0.0951
CTGAGATGCATTCTGGGCCCGTGCTAG,-0.557
GTAGGACTGGGTCTCGGTTAGTGCTAG,1.11
TTAGGTCTCGGCCTGGGTTAGTGCTAG,1.89
TTTGCATTGCTTCTATAGGCGTGCTAG,-0.0834
GACGGACTGCTTCTCCTTACGTGCTAG,0.076
ACAGGAGTGTTTCTCAGTTTGTGCTAG,0.273
TCAATGTTACATTTATAACTGTGCTAG,-0.227
TCCTCTCTGCCACTCAGGTAGTGCTAG,1.5
TCAGGTATCCTTTTCCTTTAGTGCTAG,0.64
ACCCCAAAGAGGGGCAGTGTGTGCTAG,-0.339
GACGGTTCCGGTTTCGGGACGTGCTAG,5.92
TTTACTTTCTGAATGCCCTTGTGCTAG,2.73
TTAGGTTTCCTACTGCTCTAGTGCTAG,0.796
TTAGAACAGAGTCTCGATTAGTGCTAG,1.58
GACGGTTTCCTAATGCTGACGTGCTAG,0.728
TTAGGACTGGGTCTCGGTTCGTGCTAG,0.799

# Repeated from above (study 4):
Sequence,fitted relative affinity [z-score]
TCAATGTTACATTTATAACTGTGCTAG,-0.227
TTACGTTTCCTACTGCTTTAGTGCTAG,1.53
GACGGACTGCTTCTCCTTACGTGCTAG,0.076
CTGAGATGCATTCTGGGCCCGTGCTAG,-0.557
TCCTCTCTGCCACTCAGGTAGTGCTAG,1.5
TTAGGTCTCGGCCTGGGTTAGTGCTAG,1.89
TTTGCATTGCTTCTATAGGCGTGCTAG,-0.0834
GTAGGACTGGGTCTCGGTTAGTGCTAG,1.11
ACAGGAGTGTTTCTCAGTTTGTGCTAG,0.273
